{"data": "Measured values from different studies", "note": "Each numbered part is a random draw from the data of one study; scales do not carry over between parts. Several values in a cell are separate wells, animals, samples, runs or records.", "sequence of UniProt Q9NQU5 (whole entry, looked up)": "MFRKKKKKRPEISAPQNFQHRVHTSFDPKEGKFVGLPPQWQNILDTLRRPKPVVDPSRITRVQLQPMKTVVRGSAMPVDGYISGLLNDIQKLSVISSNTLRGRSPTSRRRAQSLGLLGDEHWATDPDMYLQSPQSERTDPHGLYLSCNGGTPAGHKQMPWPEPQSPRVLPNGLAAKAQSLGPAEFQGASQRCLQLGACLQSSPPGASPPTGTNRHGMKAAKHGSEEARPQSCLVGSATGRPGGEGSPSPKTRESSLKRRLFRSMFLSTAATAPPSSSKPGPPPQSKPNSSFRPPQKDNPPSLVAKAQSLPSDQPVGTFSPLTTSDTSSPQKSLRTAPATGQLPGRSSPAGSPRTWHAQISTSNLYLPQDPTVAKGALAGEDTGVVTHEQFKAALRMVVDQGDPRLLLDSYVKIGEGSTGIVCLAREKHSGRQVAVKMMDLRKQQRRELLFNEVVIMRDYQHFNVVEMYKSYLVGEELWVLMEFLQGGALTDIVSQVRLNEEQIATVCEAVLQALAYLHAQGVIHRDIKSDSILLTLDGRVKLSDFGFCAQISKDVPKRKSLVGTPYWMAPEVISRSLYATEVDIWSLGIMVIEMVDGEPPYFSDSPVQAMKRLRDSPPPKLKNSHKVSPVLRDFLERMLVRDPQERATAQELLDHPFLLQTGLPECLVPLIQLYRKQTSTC", "sequence of UniProt P23458 (whole entry, looked up)": "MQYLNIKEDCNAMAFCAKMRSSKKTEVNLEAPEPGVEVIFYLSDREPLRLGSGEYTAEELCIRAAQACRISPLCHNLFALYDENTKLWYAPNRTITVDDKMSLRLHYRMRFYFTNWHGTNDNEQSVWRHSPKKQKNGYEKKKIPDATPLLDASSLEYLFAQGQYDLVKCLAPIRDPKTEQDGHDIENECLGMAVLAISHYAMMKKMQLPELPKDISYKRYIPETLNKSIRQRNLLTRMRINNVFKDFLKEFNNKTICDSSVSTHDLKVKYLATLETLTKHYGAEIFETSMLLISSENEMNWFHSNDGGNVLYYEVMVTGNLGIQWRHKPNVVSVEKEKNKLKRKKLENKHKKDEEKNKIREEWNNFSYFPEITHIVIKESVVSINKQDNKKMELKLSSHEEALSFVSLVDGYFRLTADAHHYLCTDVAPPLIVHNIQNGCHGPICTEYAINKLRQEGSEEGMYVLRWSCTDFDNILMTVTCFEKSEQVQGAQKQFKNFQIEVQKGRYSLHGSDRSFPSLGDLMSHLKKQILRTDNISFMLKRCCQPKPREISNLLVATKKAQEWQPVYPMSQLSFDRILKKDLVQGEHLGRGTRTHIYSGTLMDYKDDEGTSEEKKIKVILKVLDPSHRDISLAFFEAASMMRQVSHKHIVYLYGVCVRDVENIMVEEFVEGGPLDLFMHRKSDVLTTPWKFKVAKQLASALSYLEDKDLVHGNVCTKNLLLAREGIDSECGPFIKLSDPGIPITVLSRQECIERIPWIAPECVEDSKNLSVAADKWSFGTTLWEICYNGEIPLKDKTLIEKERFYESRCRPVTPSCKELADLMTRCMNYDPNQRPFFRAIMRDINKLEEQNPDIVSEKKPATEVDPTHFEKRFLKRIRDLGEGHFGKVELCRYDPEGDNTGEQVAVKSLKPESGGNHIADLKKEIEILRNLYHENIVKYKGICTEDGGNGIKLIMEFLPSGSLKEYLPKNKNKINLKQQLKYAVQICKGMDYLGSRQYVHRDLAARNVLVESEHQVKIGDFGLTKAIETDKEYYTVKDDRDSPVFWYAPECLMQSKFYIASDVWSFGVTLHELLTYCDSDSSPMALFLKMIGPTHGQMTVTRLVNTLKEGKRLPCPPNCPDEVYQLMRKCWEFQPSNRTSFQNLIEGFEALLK", "sequence of UniProt Q9HBY8 (whole entry, looked up)": "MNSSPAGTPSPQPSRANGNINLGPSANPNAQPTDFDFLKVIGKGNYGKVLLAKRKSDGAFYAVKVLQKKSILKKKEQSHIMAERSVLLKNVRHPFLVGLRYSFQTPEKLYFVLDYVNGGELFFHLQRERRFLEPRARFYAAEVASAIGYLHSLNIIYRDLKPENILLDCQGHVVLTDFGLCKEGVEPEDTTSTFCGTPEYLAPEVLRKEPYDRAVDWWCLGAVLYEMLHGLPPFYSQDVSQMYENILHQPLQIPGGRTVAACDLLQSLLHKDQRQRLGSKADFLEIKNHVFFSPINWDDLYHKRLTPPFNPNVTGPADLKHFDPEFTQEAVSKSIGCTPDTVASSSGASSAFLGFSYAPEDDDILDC", "sequence of UniProt Q96PN8 (whole entry, looked up)": "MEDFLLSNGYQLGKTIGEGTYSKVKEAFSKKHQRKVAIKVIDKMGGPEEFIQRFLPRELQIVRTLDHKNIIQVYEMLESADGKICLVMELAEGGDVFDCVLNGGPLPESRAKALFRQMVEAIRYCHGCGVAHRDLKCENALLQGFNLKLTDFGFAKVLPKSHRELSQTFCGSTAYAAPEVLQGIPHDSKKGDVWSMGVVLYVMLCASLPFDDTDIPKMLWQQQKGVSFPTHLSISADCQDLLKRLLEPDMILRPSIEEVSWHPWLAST", "sequence of UniProt P49760 (whole entry, looked up)": "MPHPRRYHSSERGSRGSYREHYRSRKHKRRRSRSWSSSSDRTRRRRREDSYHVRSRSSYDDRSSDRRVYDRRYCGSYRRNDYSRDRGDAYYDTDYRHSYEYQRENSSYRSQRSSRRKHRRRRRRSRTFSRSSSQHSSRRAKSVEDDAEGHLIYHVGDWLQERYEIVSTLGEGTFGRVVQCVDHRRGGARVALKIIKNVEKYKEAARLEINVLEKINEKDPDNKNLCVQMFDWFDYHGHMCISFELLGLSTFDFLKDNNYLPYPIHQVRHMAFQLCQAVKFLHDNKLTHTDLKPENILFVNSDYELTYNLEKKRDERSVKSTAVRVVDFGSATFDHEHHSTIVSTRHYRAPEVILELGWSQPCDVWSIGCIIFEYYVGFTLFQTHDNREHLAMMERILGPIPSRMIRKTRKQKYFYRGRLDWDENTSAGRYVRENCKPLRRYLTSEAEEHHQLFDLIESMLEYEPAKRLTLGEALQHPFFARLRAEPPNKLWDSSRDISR", "sequence of UniProt P53355 (whole entry, looked up)": "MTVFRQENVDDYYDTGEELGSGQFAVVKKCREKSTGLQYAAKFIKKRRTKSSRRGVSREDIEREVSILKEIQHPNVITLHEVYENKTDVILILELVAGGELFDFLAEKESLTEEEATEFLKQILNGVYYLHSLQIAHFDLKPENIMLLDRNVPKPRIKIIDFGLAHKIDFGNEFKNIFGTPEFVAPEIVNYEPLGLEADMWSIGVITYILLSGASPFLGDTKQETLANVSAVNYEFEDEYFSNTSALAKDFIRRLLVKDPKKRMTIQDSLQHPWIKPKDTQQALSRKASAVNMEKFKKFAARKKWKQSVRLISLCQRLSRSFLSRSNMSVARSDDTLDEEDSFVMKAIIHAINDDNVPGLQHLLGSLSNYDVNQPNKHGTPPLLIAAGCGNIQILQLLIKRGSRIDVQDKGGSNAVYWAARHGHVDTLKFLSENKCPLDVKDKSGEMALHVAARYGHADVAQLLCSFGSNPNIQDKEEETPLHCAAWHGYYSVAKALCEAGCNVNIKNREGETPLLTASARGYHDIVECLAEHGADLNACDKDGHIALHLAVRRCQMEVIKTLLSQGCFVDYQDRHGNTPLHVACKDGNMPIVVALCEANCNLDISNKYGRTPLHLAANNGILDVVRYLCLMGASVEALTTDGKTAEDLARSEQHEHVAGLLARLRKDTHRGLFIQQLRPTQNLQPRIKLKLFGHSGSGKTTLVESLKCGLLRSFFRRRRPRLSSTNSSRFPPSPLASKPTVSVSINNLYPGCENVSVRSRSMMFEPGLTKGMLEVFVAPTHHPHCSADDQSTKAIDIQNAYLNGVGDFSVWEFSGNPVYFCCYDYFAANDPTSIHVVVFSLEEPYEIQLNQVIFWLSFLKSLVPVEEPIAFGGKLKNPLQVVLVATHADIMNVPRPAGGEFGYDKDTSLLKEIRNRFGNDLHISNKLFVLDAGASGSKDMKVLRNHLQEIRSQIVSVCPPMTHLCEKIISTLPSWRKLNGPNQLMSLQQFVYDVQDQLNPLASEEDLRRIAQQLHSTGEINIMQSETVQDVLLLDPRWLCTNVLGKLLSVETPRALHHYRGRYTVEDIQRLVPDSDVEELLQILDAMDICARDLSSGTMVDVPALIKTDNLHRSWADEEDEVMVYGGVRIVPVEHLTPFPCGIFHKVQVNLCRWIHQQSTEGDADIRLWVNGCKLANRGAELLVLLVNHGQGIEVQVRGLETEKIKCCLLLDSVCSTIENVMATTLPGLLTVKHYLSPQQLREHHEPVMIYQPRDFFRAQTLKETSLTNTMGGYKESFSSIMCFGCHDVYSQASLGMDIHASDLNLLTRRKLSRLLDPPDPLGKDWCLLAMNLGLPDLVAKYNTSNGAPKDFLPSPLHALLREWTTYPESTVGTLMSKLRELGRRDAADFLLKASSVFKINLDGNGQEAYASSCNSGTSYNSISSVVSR", "sequence of UniProt Q14012 (whole entry, looked up)": "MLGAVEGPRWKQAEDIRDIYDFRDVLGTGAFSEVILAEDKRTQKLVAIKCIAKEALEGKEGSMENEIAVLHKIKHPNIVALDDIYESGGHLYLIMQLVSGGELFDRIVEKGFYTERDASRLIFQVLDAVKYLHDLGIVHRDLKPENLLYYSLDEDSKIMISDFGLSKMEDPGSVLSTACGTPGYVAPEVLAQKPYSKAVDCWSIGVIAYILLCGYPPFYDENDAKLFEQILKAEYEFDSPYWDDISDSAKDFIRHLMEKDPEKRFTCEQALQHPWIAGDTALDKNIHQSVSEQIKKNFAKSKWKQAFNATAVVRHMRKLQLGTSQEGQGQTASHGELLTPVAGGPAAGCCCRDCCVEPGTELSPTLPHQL"}
{"data": "Set 1", "SMILES": "CC(=O)N[C@@H](Cc1c[nH]c2ccccc12)C(=O)N[C@@H](CCC(=O)C=[N+]=[N-])C(=O)OC(C)C", "species": "mouse", "matrix": "EL4 tumour", "dose": "dose not given"}
{"assay": "measured: quinolinic acid", "normalized intensity": "-0.091 and -0.028 and 0.085 and 0.13 and 0.116 and 0.00742"}
{"assay": "measured: glutamine", "normalized intensity": "0.0833 and 0.0245 and 0.09 and 0.0813 and 0.0859 and 0.154"}
{"assay": "measured: citrate", "normalized intensity": "-0.218 and -0.29 and -0.231 and 0.125 and 0.0412 and 0.138"}
{"assay": "measured: FGAR", "normalized intensity": "0.913 and 0.475 and 0.592 and 0.117 and 0.87 and 0.522"}
{"data": "Set 2", "SMILES": "CCCCc1c(-c2ccc(OC)cc2)[nH]c2nccnc12", "effect on": "enzyme activity", "mode": "inhibitor", "concentration": "0.5 µM", "relative to": "control"}
{"target": "Serine/threonine-protein kinase SIK2 (SIK2, Homo sapiens, UniProt Q9H0K1)", "remaining activity [%]": 98.4}
{"target": "Mitogen-activated protein kinase kinase kinase 20 (MAP3K20, Homo sapiens, UniProt Q9NYL2)", "remaining activity [%]": 83.6}
{"target": "Casein kinase I isoform epsilon (CSNK1E, Homo sapiens, UniProt P49674)", "remaining activity [%]": 109}
{"target": "Serine/threonine-protein kinase PAK 6 (PAK6, Homo sapiens, UniProt Q9NQU5)", "remaining activity [%]": 96.8}
{"target": "Ephrin type-A receptor 2 (EPHA2, Homo sapiens, UniProt P29317)", "remaining activity [%]": 87.9}
{"target": "Casein kinase I isoform delta (CSNK1D, Homo sapiens, UniProt P48730)", "remaining activity [%]": 94.7}
{"target": "Serine/threonine-protein kinase Sgk2 (SGK2, Homo sapiens, UniProt Q9HBY8)", "remaining activity [%]": 116}
{"target": "Muscle, skeletal receptor tyrosine-protein kinase (MUSK, Homo sapiens, UniProt O15146)", "remaining activity [%]": 95.4}
{"target": "Calcium/calmodulin-dependent protein kinase type 1 (CAMK1, Homo sapiens, UniProt Q14012)", "remaining activity [%]": 90.9}
{"target": "Tyrosine-protein kinase Tec (TEC, Homo sapiens, UniProt P42680)", "remaining activity [%]": 134}
{"target": "Calcium/calmodulin-dependent protein kinase kinase 1 (CAMKK1, Homo sapiens, UniProt Q8N5S9)", "remaining activity [%]": 105}
{"target": "Dual specificity protein kinase CLK1 (CLK1, Homo sapiens, UniProt P49759)", "remaining activity [%]": 102}
{"target": "Serine/threonine-protein kinase PAK 1 (PAK1, Homo sapiens, UniProt Q13153)", "remaining activity [%]": 83.7}
{"target": "SRSF protein kinase 1 (SRPK1, Homo sapiens, UniProt Q96SB4)", "remaining activity [%]": 100}
{"target": "Cyclin-dependent kinase 2, with cyclin E (CDK2, Homo sapiens, UniProt P24941)", "remaining activity [%]": 42.1}
{"target": "Insulin-like growth factor 1 receptor (IGF1R, Homo sapiens, UniProt P08069)", "remaining activity [%]": 83.9}
{"target": "Tyrosine-protein kinase JAK1 (JAK1, Homo sapiens, UniProt P23458)", "remaining activity [%]": 67.1}
{"target": "Ribosomal protein S6 kinase alpha-3 (RPS6KA3, Homo sapiens, UniProt P51812)", "remaining activity [%]": 88}
{"target": "Dual specificity protein kinase CLK2 (CLK2, Homo sapiens, UniProt P49760)", "remaining activity [%]": 85.3}
{"target": "Vascular endothelial growth factor receptor 1 (FLT1, Homo sapiens, UniProt P17948)", "remaining activity [%]": 103}
{"target": "Protein kinase C theta type (PRKCQ, Homo sapiens, UniProt Q04759)", "remaining activity [%]": 107}
{"data": "Set 3", "Structure (SMILES)": "CNCc1ccccc1-c1csc([C@@H](C)Nc2nc(C)nc3cc(OC)c(OC)cc23)c1", "effect on": "cell-free assay", "method": "competition with immobilised ligand", "concentration": "1 µM"}
{"target": "BDNF/NT-3 growth factors receptor (NTRK2, Homo sapiens, UniProt Q16620)", "remaining binding": "88%"}
{"target": "Dual specificity protein kinase CLK3 (CLK3, Homo sapiens, UniProt P49761)", "remaining binding": "100%"}
{"target": "Epidermal growth factor receptor (EGFR, Homo sapiens, UniProt P00533, del747-752/P753S)", "remaining binding": "61%"}
{"target": "Calcium/calmodulin-dependent protein kinase type IV (CAMK4, Homo sapiens, UniProt Q16566)", "remaining binding": "88%"}
{"target": "Dual specificity mitogen-activated protein kinase kinase 2 (MAP2K2, Homo sapiens, UniProt P36507)", "remaining binding": "82%"}
{"target": "Casein kinase I isoform gamma-3 (CSNK1G3, Homo sapiens, UniProt Q9Y6M4)", "remaining binding": "99%"}
{"target": "eIF-2-alpha kinase GCN2, C-terminal kinase domain (EIF2AK4, Homo sapiens, UniProt Q9P2K8, S808G)", "remaining binding": "99%"}
{"target": "Serine/threonine-protein kinase NLK (NLK, Homo sapiens, UniProt Q9UBE8)", "remaining binding": "84%"}
{"target": "Tyrosine-protein kinase JAK1, JH2 (JAK1, Homo sapiens, UniProt P23458)", "remaining binding": "73%"}
{"target": "Fibroblast growth factor receptor 4 (FGFR4, Homo sapiens, UniProt P22455)", "remaining binding": "100%"}
{"target": "Testis-specific serine/threonine-protein kinase 3 (TSSK3, Homo sapiens, UniProt Q96PN8)", "remaining binding": "100%"}
{"target": "Phosphatidylinositol 4-phosphate 3-kinase C2 domain-containing subunit beta (PIK3C2B, Homo sapiens, UniProt O00750)", "remaining binding": "86%"}
{"target": "Myosin light chain kinase family member 4 (MYLK4, Homo sapiens, UniProt Q86YV6)", "remaining binding": "99%"}
{"target": "Mast/stem cell growth factor receptor Kit (KIT, Homo sapiens, UniProt P10721, D816H)", "remaining binding": "85%"}
{"target": "Death-associated protein kinase 1 (DAPK1, Homo sapiens, UniProt P53355)", "remaining binding": "99%"}
{"target": "Serine/threonine-protein kinase PAK 6 (PAK6, Homo sapiens, UniProt Q9NQU5)", "remaining binding": "100%"}
{"target": "Phosphatidylinositol 4,5-bisphosphate 3-kinase catalytic subunit delta isoform (PIK3CD, Homo sapiens, UniProt O00329)", "remaining binding": "75%"}
{"target": "Rho-associated protein kinase 2 (ROCK2, Homo sapiens, UniProt O75116)", "remaining binding": "93%"}
{"target": "Dual specificity protein kinase TTK (TTK, Homo sapiens, UniProt P33981)", "remaining binding": "97%"}
{"target": "Cyclin-dependent kinase 11B (CDK11B, Homo sapiens, UniProt P21127)", "remaining binding": "100%"}
{"data": "Set 4", "Compound": "COc1ccc(-c2c(Nc3ccccn3)[nH]c3c(C4=CCCCC4)c(-c4ccccc4)nn3c2=O)cc1", "species": "cancer patients", "matrix": "plasma", "route": "oral"}
{"setting": "150 mg, cycle 0 day -3, single dose", "Tmax, median [h]": 3}
{"setting": "50 mg, cycle 0 day -3, single dose", "Tmax, median [h]": 3}
{"setting": "50 mg once daily, cycle 1 day 15, multiple dosing", "Tmax, median [h]": 6}
{"setting": "200 mg, cycle 0 day -3, single dose", "Tmax, median [h]": 4}
{"note": "Excerpt of the above (set 3):"}
{"target": "Phosphatidylinositol 4,5-bisphosphate 3-kinase catalytic subunit delta isoform (PIK3CD, Homo sapiens, UniProt O00329)", "remaining binding": "75%"}
{"target": "Rho-associated protein kinase 2 (ROCK2, Homo sapiens, UniProt O75116)", "remaining binding": "93%"}
{"target": "Dual specificity protein kinase TTK (TTK, Homo sapiens, UniProt P33981)", "remaining binding": "97%"}
{"target": "Cyclin-dependent kinase 11B (CDK11B, Homo sapiens, UniProt P21127)", "remaining binding": "100%"}
